Measurements of several laboratories.
Each numbered part is a random draw from the data of one study; scales do not carry over between parts.

Study 1
Target: RNA binding protein fox-1 homolog 2, RRM domain, GST-SBP tag (RBFOX2, Homo sapiens, UniProt O43251-10, residues 100-194)
Method: RNA Bind-n-Seq
Form: RNA
Matrix: in vitro
Concentration: 365 nM
Setting: natural RNA segment, single round, ends assumed
Relative to: no-protein control
Reading: higher = stronger binding
Residues (chain): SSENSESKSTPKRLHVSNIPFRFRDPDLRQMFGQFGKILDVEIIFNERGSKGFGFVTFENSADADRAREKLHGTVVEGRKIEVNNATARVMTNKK
Oligonucleotide	RBNS enrichment (R)
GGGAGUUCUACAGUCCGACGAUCCCCCUCUGAGCCUUUUCUCCCCAGGGUAUGGCUCCUGCUGAGUUUCUUGUCCAGCAGGGCCUUGACAGGAAUCCAGGGAGUAGCUCCUGGCCAGAACCAGCCUCUGCGGGUGGAAUUCUCGGGUGCCAA	0.429
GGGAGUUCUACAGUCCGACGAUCAAUUUUUGACUUAAUUUUGAAAUCGUAUAUAUGAGCUAUACUUUAACAUUAUGAGAGAAAAGCAUAAAACAAAAAUAGGUAGUUCUUGGCUUUUAACAUUAAUGCAAAUCUGGAAUUCUCGGGUGCCAA	0.617
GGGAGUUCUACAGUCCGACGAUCAAAUUAGCCUAGUGAAAUCUCUGAUUGUUCAUUACAAAGGCAGCGUUCACAGCAUUGCUUCUUCUUCUUCCUUCUCCACCUCCUUGUGGGAACGGGAUUAAGUUUAAAACUGGAAUUCUCGGGUGCCAA	0.268
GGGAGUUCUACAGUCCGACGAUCAUGCUUGGAGAAAGAAGAAACCCUAUUCUUGUUUUAGUAUCUUGAUCUCAUUAGUUUAUAGGCGUUGAUAAUAUCCCUAUGCAUAGAUUCUUUGUGUAUUGAUUACUAUAUGGAAUUCUCGGGUGCCAA	0.536
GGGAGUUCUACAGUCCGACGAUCCCAUUCAUCACAUCUGCCUCAUAGCCCCCAUCUUUGCUGUGCUGAUAGGAUUUAGUUGUGUUUAGGACAUUGCAGAUCUUCUAGAAGUUUCCCCUCAAUCAGGUUGAUAAUGGAAUUCUCGGGUGCCAA	0.6
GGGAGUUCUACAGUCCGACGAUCGGGGCCUCUGUCAUUGUCUCAAAGACAGAGCUUAAAGAGGUCAGAAUGAGUUCUCUGUUGUGCCCCCACUGCAGCUGUCUCUUGUGCUCUCCAGGUAUGCAGCUCAUAUGUGGAAUUCUCGGGUGCCAA	0.317
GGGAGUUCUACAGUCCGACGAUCUUUUAACUUCGUGUUCUGUAUCUCCUCAGCCAUGUAUCUUAAAUAUAUUUUGUCAUCAUAAUCUUUAUGGUGGGGGCAGACUUUGCACUUACUGCAGUGCAACACUUGCAUGGAAUUCUCGGGUGCCAA	1.08
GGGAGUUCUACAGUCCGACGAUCUUCGAUACAUAAUUAUGGUUUCUGUAUAAGAAGGUAUUGGUUAAGUAUCACGUUUUCAGCCAUGUUGUGUAAGAGACCUGCUUUCAAGUGUGGUUGUAAAAGCAAGCCCAUGGAAUUCUCGGGUGCCAA	0.279

Study 2
Target: RING finger protein unkempt homolog, zinc fingers 1-6, GST-SBP tag (UNK, Homo sapiens, UniProt Q9C0B0, residues 30-357)
Chain of UniProt Q9C0B0 (30-357, looked up): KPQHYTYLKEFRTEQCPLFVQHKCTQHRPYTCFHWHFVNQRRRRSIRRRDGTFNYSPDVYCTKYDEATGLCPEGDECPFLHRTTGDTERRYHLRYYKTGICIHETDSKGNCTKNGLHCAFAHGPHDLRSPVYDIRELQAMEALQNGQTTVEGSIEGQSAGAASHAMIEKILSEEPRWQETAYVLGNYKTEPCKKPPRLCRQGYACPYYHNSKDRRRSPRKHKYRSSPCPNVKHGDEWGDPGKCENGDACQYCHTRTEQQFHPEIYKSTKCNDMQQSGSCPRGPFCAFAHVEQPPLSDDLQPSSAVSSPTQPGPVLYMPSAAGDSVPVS
Method: RNA Bind-n-Seq
Form: RNA
Matrix: in vitro
Concentration: not given
Setting: RNA with constant flanks, human and mouse sites, ends assumed
Relative to: input RNA pool
Reading: higher = stronger binding
Oligonucleotide	bound/input enrichment
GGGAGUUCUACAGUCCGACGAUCGCAGAUGAAGCAGAGAAUCUUAAAUUGUGGAACUCUUUCUGUCAUUCUGAGGACCCCUACAACCUUUUAAAUUUUAAGGCUCCUUUUCAACCGUCAGGGAAGAAUUGGAAAGGCCGUCAGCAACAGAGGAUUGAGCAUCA	0.264 ratio
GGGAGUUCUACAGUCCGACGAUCGCCUUUUUUGCCCAUUGCCCAGGGAUCAAGGUGGUAAUACCCCGAAGCCCUUUCCAGGCCAAGGGACUUCUGUUGUCAUGCAUAGAAGAUAAAAAUCCAUGUAUAUUUUUUGAACCUAAACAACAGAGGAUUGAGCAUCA	0.221 ratio
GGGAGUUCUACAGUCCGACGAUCCAUGCAGAUGCUGACCGAUCACCUAUAUUUCUUCAGUUUAUUGAUUGUGUUUGGCAGAUGACAAGACAGUUCCCUUCAGCAUUUGAGUUUAAUGAAUUAUUCUUGAUUACAAUUUUGGAUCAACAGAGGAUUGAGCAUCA	0.209 ratio
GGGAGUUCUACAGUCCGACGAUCGCAGGCAAUUGGGGAGCUUAGUCUAAGAGCAAUGGCUCCCGGGGUUUCCCCCACCAAACAGUCUUCCCUUACCUCGGUGGACUUGUAUAUAUUCUAGAGAAGGGCGUGGGUUGCACCGUCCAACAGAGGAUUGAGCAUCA	0.449 ratio
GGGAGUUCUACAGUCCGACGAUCGUUGAUGCAGACUCUCUUGCCGAGGUAGAUGAUGGAAUGGCUUCCCGUCAGGGUUCUCCCAGUAGAACCUUUGGUCUGAGUCUGUCUACGGAUUCUUCGGCAGUAGGGGCUGUUGCUUCUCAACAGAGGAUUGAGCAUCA	0.313 ratio
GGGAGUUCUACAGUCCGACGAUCCGUGUUUUGCGCCGCACCCGAAUCGCCAAAAACUUGGAACUGGAACAAGUGACUGUCCCAAUUGGAGUUCUGCUGGUGAUCUUUGAAUCUCGUCCUGACUGUCUACCCCAGGUGGCAGCUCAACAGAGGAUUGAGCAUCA	0.185 ratio
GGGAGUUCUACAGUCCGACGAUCAUAGAUGCAGUGAAGUUGUUAAAUAACGAAAAUGUUGCCCCUUUUCAUUCAGAGCUAACUGAAAAGUCAUCACCAGAAGAAACACUAAAUGAAUUAACUGGAAGACUAUCAAAUAAUCAUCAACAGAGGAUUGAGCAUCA	0.231 ratio
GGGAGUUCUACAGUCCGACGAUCAAACUUCAAACUACUCUUACUUGUAAUUCCAUGGUACUUUUUGAUCAUAUGGGAUGUCUGAAGAAAUAUGAAACUGUGCAAGACAUUCUGAAAGAAUUCUUUGAUUUACGAUUAAGUUAUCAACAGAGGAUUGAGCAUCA	0.172 ratio

Study 3
Target: Ras GTPase-activating protein-binding protein 1, RRM domain (G3BP1, Homo sapiens, UniProt Q13283)
Chain of UniProt Q13283 (whole entry, looked up): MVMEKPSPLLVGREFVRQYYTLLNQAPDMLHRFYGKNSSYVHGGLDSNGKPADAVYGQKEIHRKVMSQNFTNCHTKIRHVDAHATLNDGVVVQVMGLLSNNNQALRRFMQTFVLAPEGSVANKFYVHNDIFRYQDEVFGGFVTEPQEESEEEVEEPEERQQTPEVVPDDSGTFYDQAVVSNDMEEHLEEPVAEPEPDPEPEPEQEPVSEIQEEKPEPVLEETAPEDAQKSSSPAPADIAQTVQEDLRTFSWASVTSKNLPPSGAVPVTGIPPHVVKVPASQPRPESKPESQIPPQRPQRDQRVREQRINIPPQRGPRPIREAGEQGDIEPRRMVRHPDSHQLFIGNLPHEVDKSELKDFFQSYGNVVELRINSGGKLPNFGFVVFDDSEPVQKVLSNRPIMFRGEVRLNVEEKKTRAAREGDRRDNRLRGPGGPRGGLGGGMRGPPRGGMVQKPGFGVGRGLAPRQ
Method: RNA Bind-n-Seq
Form: RNA
Matrix: in vitro
Concentration: 1 µM
Setting: whole 134-nt RNA, ends assumed
With: 150 mM KCl
Relative to: input library
Reading: higher = stronger binding
Oligonucleotide	log2 enrichment
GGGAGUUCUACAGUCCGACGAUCUUCCUCAAGUCCUGUGCUACACAUCGUAUGUACCGAAUCGGAGGAGGGAGGAAAGUAUUAUGUUACGCCGUUCGGAUCUGCACUUCCAGCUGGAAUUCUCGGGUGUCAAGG	-0.226
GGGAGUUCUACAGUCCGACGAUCUAACUUUAGAGGAGGAUCUGAUGGAUAUGGCAGUGGACGUGGAUUUGGGGAUGGCCAUAAUGGGUAUGGAGGAGGACCUGGAGGUGGCAAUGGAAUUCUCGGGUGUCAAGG	-0.356
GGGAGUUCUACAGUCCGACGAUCUCCUCAAGUCCUGUGCUACACAUCGUAUGUACCGAAUCGGUGGUGGGGUGGAAAGUAUUAUGUUACGCCGUUCGGAUCUGCACUUCCAGCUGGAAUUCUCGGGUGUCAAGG	-0.196
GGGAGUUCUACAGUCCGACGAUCCUGUGCUACACAUCGUAUGUACCGAAUCGGGGAAAAAAAGGGGAAAGGGGUUUUUUUGGGGAAAGUAUUAUGUUACGCCGUUCGGAUCUGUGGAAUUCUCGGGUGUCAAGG	0.601
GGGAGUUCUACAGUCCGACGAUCUAACUUUAGAGGAGGAUCUGAUGGAUAUGGCAGUGGACGUGGAUUUGGGGAUGGCUAUAAUGGGUAUGGAGGAGGUCCUGGAGGUGGCAAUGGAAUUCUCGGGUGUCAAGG	-0.262
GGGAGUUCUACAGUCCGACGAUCGUCCUGUGCUACACAUCGUAUGUACCGAAUCGGGGUUUUUGGGGAAAAAGGGGAGGGGAAAGUAUUAUGUUACGCCGUUCGGAUCUGCACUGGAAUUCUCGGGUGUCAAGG	0.942
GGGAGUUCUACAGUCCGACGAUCUGGGAGGUGGAUUUUGUUUAUUUUUUUAGCUCAUUUCCAGGGGUGGGAAUUUUUUUUUAAUAUGUGUUAUGAAUAAAGUUGUUUUUGAAAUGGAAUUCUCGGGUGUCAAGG	1.69
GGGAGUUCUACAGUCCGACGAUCUAACUUUAGAGGAGGAUCUGAUGGAUAUGGCAGUGGACGUGGAAUUGGGGAUGGCUAUAAUGGGUAUGGAGGAGGACCUGGAGGUGGCAAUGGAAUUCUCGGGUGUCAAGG	-0.759
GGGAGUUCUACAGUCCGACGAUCCACAGACAACACGCACCCACACAGACACAGAGGGAAGGGGUUGGGAUGGGGACAGAAAGCACAGCAGGGCGGGGUAGGACCCCAGCCCCUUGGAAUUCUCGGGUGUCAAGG	-0.211

Study 4
Target: Histone acetyltransferase KAT6A, both winged helices, GST fusion (KAT6A, Homo sapiens, UniProt Q92794, residues 1-181)
Method: protein binding microarray
Form: double-stranded DNA, one strand shown
Matrix: in vitro
Concentration: not given
Setting: 8-mer, flanks averaged, mean of 2 arrays, mostly near background
Relative to: not given
Reading: higher = stronger binding
Construct (chain): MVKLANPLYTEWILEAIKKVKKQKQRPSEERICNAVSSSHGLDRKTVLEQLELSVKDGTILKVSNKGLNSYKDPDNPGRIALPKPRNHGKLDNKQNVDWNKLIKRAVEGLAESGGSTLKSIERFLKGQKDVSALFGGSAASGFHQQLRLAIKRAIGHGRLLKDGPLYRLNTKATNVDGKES
Oligonucleotide	E-score
CGTAGCAG	0.0457
ATTGGGTG	-0.124
ACCTACGG	0.0935
CTGCGACA	0.0977
CGGTCGGC	0.329
GCCACCAC	-0.0799
CAACCGAA	0.0371
CCTCTACC	-0.102
CTTGGGGA	-0.124
CAGTCGAG	-0.213
CTCGAAAG	-0.0268
GCCACGCA	0.16
ACCGCGCG	0.39
ATAGATCC	-0.0539
CATAGCAC	-0.0488
CAACCTGA	-0.195
CTTCACGA	-0.0644
ACAGCAGC	-0.102
CCGTTGCG	0.286
AGATACGG	0.141
ACACAAGT	-0.0726
GCAAGCCC	-0.0113
